Measurements pooled from the literature.
± marks the error that the study gave.
HSD17B4: Peroxisomal multifunctional enzyme type 2 (HSD17B4, Homo sapiens, UniProt P51659)
NMBR: Neuromedin-B receptor (NMBR, Homo sapiens, UniProt P28336)
PDGFRB: Platelet-derived growth factor receptor beta (PDGFRB, Homo sapiens, UniProt P09619)

O=c1ccc2ccc(O[C@@H]3O[C@H](CO)[C@@H](O)[C@H](O)[C@H]3O)c(O[C@@H]3O[C@H](CO)[C@@H](O)[C@H](O)[C@H]3O)c2o1  IC50 (Alpha-glucosidase MAL12 (MAL12, Saccharomyces cerevisiae S288c, UniProt P53341); enzyme activity, inhibitor, absorbance): > 100000 nM
COc1cc2nccc(Oc3ccc(NC(=S)Nc4cccc(C(F)(F)F)c4)c(Cl)c3)c2cc1C(N)=O  IC50 (Vascular endothelial growth factor receptor 2 (KDR, Homo sapiens, UniProt P35968)): 118 nM
COc1ccc(CCNc2ncnc3sc(C)cc23)cc1OC  IC50 (COUP transcription factor 2 (NR2F2, Homo sapiens, UniProt P24468); reporter gene, inhibitor; 293T transfected with NR2F2; 18 h): 3200 nM
CC(C)c1ccc(CN2CCN(CC(=O)c3ccc4[nH]c(=O)[nH]c4c3)CC2)cc1  IC50 (DNA dC->dU-editing enzyme APOBEC-3A (Homo sapiens, UniProt P31941); enzyme activity, inhibitor; pH 5.5): 3000 nM
N=C(N)NCCC[C@@H]1NC(=O)[C@H](CCCCNC(=O)[C@H]2O[C@@H](CNC(=O)COCCOCCn3cc(CNC(=O)CC[C@H](NC(=O)c4ccc(NN=Cc5ccccc5S(=O)(=O)O)nc4)C(=O)NCc4cn(CCOCCOCC(=O)NC[C@@H]5O[C@H](C(=O)NCCCC[C@@H]6NC(=O)[C@@H](Cc7ccccc7)NC(=O)[C@H](CC(=O)O)NC(=O)CNC(=O)[C@H](CCCNC(=N)N)NC6=O)[C@H](O)[C@H](O)[C@H]5O)nn4)nn3)[C@H](O)[C@@H](O)[C@H]2O)NC(=O)[C@@H](Cc2ccccc2)NC(=O)[C@H](CC(=O)O)NC(=O)CNC1=O  IC50 (Integrin alpha-V/beta-3 (Homo sapiens, UniProt P05106+P06756); ligand displacement, radioligand; pH 7.4): 20 nM
OCc1ccccc1S[C@@H]1O[C@H](CO)[C@@H](O)[C@H](O)[C@H]1O  IC50 (Sodium/glucose cotransporter 1 (SLC5A1, Homo sapiens, UniProt P13866); transporter uptake, inhibitor, radiometric): 9000 nM
Cc1cccc(Cn2c(CN3CCN(C(=O)C4CC4)CC3)nc3c2c(=O)n(C)c(=O)n3C)c1  IC50 (HSD17B4): > 57000 nM
C#Cc1ccc2c(=O)[nH]nc(Cc3ccc(F)c(C(=O)N4CCN(C(=O)C=C)CC4)c3)c2c1  IC50 (Poly [ADP-ribose] polymerase 2 (PARP2, Homo sapiens, UniProt Q9UGN5); enzyme activity, inhibitor): 139 nM
CC(C)CCn1c(OC2CCN(C(=O)C3CC3)CC2)nc2c1c(=O)n(C)c(=O)n2C  IC50 (HSD17B4): > 57000 nM
OC(c1ccccc1)(c1ccccc1)c1cccs1  IC50 (Intermediate conductance calcium-activated potassium channel protein 4 (KCNN4, Homo sapiens, UniProt O15554); ion current, inhibitor, patch clamp): 1500 nM
CC[C@H](C)[C@@H]1NC(=O)[C@H](CCCNC(=N)N)NC(=O)[C@H](CCCNC(=N)N)NC(=O)[C@H](CC(C)C)NC(=O)[C@@H](NC(=O)[C@H](C)NC(=O)[C@H](C)NC(C)=O)CSCc2ccc3nc4cc(ccc4nc3c2)CSC[C@@H](C(=O)N[C@H](C(=O)N[C@@H](CC(N)=O)C(=O)N[C@@H](CC(C)C)C(=O)N[C@@H](CCCNC(=N)N)C(=O)N[C@@H](CCC(N)=O)C(=O)N[C@@H](CCCCN)C(=O)N[C@@H](CC(C)C)C(=O)N[C@@H](CC(C)C)C(=O)N[C@@H](CC(N)=O)C(N)=O)C(C)C)NC(=O)[C@H](CC(=O)O)NC(=O)CNC1=O  IC50 (Induced myeloid leukemia cell differentiation protein Mcl-1 (MCL1, Homo sapiens, UniProt Q07820); ligand displacement, FP): 111 nM
CC(C)C[C@@H](CN[C@@H](Cc1ccc(Cl)cc1)C(N)=O)NC(=O)[C@H](Cc1c[nH]cn1)NC(=O)CNC(=O)[C@@H](NC(=O)[C@H](C)NC(=O)[C@H](Cc1c[nH]c2ccccc12)NC(=O)[C@H](CCC(N)=O)NC(=O)[C@H](N)Cc1ccccc1)C(C)C  IC50 (NMBR; inositol phosphate generation, antagonist; NCI-H1299; together with: neuromedin B): > 10000 nM
CCCc1c(OC)c(=O)c2c(O)c(Br)c(OC)c3c4c(OC)c(Br)c(O)c5c(=O)c(OC)c(CCC)c(c1c23)c54  IC50 (protein kinase C; enzyme activity, inhibitor; whole enzyme): 2500 nM
O=C(O)/C=C\C(=O)NNC(=O)c1cc2ccccc2cn1  IC50 (Egl nine homolog 1 (EGLN1, Homo sapiens, UniProt Q9GZT9); inhibitor, AlphaScreen; bimodal curve, rough estimate, together with: 2 µM 2-oxoglutarate): > 300000 nM
COc1cc2nccc(Oc3ccc(NC(=S)NC4CC4)c(Cl)c3)c2cc1C(=O)NC1CC1  IC50 (PDGFRB): 210 nM
NC1CCC(Nc2nccc(-c3cccnc3Oc3cc(Cl)c(NS(=O)(=O)c4ccccc4Cl)cc3F)n2)CC1 (stereo not drawn)  IC50 (Serine/threonine-protein kinase/endoribonuclease IRE1, RNase domain (ERN1, Homo sapiens, UniProt O75460); RNase activity, inhibitor; together with: XBP1 mini-substrate): 390 ± 270 nM
CCOC(=O)c1nc2cc(Cl)c(Cl)cc2nc1N1CCN(C(=O)Nc2ccc(N3CCNCC3)cc2)CC1  IC50 (Phosphoglycerate kinase 1 (PGK1, Homo sapiens, UniProt P00558); enzyme activity, inhibitor, GAPDH-coupled NADH; together with: 1.5 mM ATP and 2 mM 3-PG): 160 ± 10 nM
CSCC[C@H](NC(=O)[C@H](CC(C)C)NC(=O)[C@H](Cc1cnc[nH]1)NC(=O)CNC(=O)[C@@H](NC(=O)[C@H](C)NC(=O)[C@H](Cc1c[nH]c2ccccc12)NC(=O)[C@H](Cc1cnc[nH]1)NC(=O)[C@H](CC(N)=O)NC(=O)CN)C(C)C)C(N)=O  IC50 (NMBR; NMBR activity, cell-based): 37 to 75 nM
Cc1ccc(CNC(=O)C(CCc2ccccc2)NC(=O)C(NC(=O)Cc2cccc(Oc3ccccc3)c2)C(C)O)cc1 (stereo not drawn)  IC50 (PSMB6/PSMB7 (Homo sapiens, UniProt P28072+Q99436); inhibitor): 48000 nM
O=c1c2ccccc2sn1Cc1ccccc1  IC50 (Polyamine deacetylase HDAC10 (HDAC10, Homo sapiens, UniProt Q969S8); enzyme activity, inhibitor): > 10000 nM
COc1ccc(-c2cc(C(F)(F)F)nc(S(=O)(=O)CCC(=O)Nc3ccc(C)cc3)n2)cc1  IC50 (Bifunctional 3'-5' exonuclease/ATP-dependent helicase WRN (WRN, Homo sapiens, UniProt Q14191); ATPase activity, inhibitor, ADP detection): 2700 nM
NC1CCC(Nc2nccc(-c3cccnc3Oc3ccc(NS(=O)(=O)Cc4ccccc4Cl)c4ccccc34)n2)CC1 (stereo not drawn)  IC50 (Serine/threonine-protein kinase/endoribonuclease IRE2, RNase domain (ERN2, Homo sapiens, UniProt Q76MJ5); RNase activity, inhibitor; together with: XBP1 mini-substrate): 490 ± 20 nM
COc1cc2nccc(Oc3cc(Cl)c(NC(=S)NC4CC4)cc3F)c2cc1C(N)=O  IC50 (PDGFRB): 68.8 nM
N#Cc1ccc(C2Sc3ccccc3NC3=C2C(=O)c2ccccc23)cc1 (racemic)  IC50 (Type II NADH dehydrogenase (Plasmodium falciparum, UniProt Q8I302); enzyme activity, inhibitor, fluorescence NAD+ quantitation; recombinant enzyme): > 20000 nM
O=C(N1CCCC1)n1cc(-c2ccc(-c3ccccc3)cc2)nn1  IC50 (Platelet-activating factor acetylhydrolase (Mus musculus, UniProt Q60963); enzyme activity, inhibitor): 100 nM
CC(=O)Nc1ccc(C(=O)Nc2cc(-c3cccs3)ccc2N)cc1  IC50 (Histone deacetylase 5 (HDAC5, Homo sapiens, UniProt Q9UQL6); deacetylase activity, inhibitor, recombinant enzyme): > 30000 nM
NS(=O)(=O)c1ccc(NC(=O)NN[C@@H]2O[C@H](CO)[C@@H](O)[C@H](O)[C@@H]2O)cc1  IC50 (Carbonic anhydrase 2 (CA2, Homo sapiens, UniProt P00918); enzyme activity, inhibitor): 15 nM
CN1C[C@H](c2cccc(C(F)(F)F)c2)[C@@H](C(=O)Nc2ccccc2F)C1=O  IC50 (dihydroorotate dehydrogenase (Zea mays, UniProt B6U892); enzyme activity, DCPIP colorimetric): 36 ± 14 nM
CN(C1COC1)C(C)(C)/C=C(\C#N)C(=O)N1CCC[C@H]1Cn1nc(-c2ccc(Oc3ccccc3)cc2F)c2c(N)ncnc21  IC50 (Tyrosine-protein kinase BTK (BTK, Homo sapiens, UniProt Q06187); probe binding, AlphaScreen; Ramos; together with: biotinylated probe): 5 to 27 nM
COc1ccc(-c2c[nH]c3ccnc(Nc4ccc(Oc5ncnc6cc(OC)c(OC)cc56)c(F)c4)c3c2=O)cc1  IC50 (Hepatocyte growth factor receptor (MET, Homo sapiens, UniProt P08581); kinase activity, inhibitor, HTRF): 602 nM
CN(C(=O)c1ccn2ncc(-c3ccc(C(N)=O)cc3)c2c1)c1ccc(C#N)cn1  IC50 (Non-receptor tyrosine-protein kinase TYK2 (TYK2, Homo sapiens, UniProt P29597); enzyme activity, inhibitor): > 10000 nM
CC(C)(C)NCCCNC(=O)c1ccnc(Br)c1  IC50 (E3 ubiquitin-protein ligase UHRF1 (UHRF1, Homo sapiens, UniProt Q96T88); methyl-lysine reader binding, inhibitor, AlphaScreen): > 100000 nM
O=C(NCCc1ccc(OS(=O)(=O)O)c(Br)c1)/C(Cc1ccc(O)c(Br)c1)=N/O  IC50 (Ryanodine receptor 1, with FKBP12 (RYR1, Oryctolagus cuniculus, UniProt P11716); binding, antagonist; rabbit skeletal muscle SR vesicles; 3.5 h, pH 7.4, 37 °C, together with: [3H]ryanodine 1 nM): 13000 nM
COc1ccc([C@@H]2CC(=O)c3c(O)cc(O[C@@H]4O[C@H](CO[C@@H]5O[C@@H](C)[C@H](O)[C@@H](O)[C@H]5O)[C@@H](O)[C@H](O)[C@H]4O)cc3O2)cc1O  IC50 (Solute carrier organic anion transporter family member 2B1 (SLCO2B1, Homo sapiens, UniProt O94956); transporter uptake, inhibitor, flow cytometry; HEK293; 10 min): 8300 nM
COc1cc2nccc(Oc3ccc(NC(=S)NCCC#N)c(Cl)c3)c2cc1C(N)=O  IC50 (PDGFRB): 255 nM
COCC1CN(C2CCN(c3cc(OC)c(Nc4ncc(Br)c(Nc5ccc6c(c5P(C)(C)=O)OCCO6)n4)cc3C)CC2)C1  IC50 (Epidermal growth factor receptor (EGFR, Homo sapiens, UniProt P00533, C797S/L858R); enzyme activity, inhibitor, TR-FRET): < 1.5 nM
CC(C)CCN(Cc1ccccc1[N+](=O)[O-])c1nc(C#N)nc(N2CCOCC2)n1  IC50 (Procathepsin L (CTSL, Homo sapiens, UniProt P07711); enzyme activity, inhibitor, fluorescence): 96 nM
CC(C)CCC[C@@H](C)[C@H]1CC[C@H]2[C@@H]3CC=C4C[C@@H](OS(=O)(=O)O)CC[C@]4(C)[C@H]3CC[C@]12C  IC50 (Prothrombin (F2, Homo sapiens, UniProt P00734); enzyme activity, inhibitor; pH 7.4, 37 °C, no Tween, together with: Spectrozyme TH): 144000 ± 20200 nM
O=C(Nc1ccc(-c2nc3ncccc3o2)cc1)c1ccccc1Br  IC50 (Nucleoside transporter 1 (Plasmodium vivax, UniProt A5K8B0); [3H]adenosine uptake; target-expressing yeast): 22.4 ± 11.8 nM
O=c1[nH]c(=S)[nH]c2c1C(c1cc(/N=N/c3cc(Cl)cc(Cl)c3)ccc1O)c1c([nH]c(=S)[nH]c1=O)N2  IC50 (Prostaglandin G/H synthase 2 (PTGS2, Ovis aries, UniProt P79208); enzyme activity, inhibitor, ELISA): 2110 nM
O=c1[nH]c(=O)c2ncn(CCOCP(=O)(O)OP(=O)(O)OP(=O)(O)O)c2[nH]1  IC50 (DNA polymerase beta (POLB, Homo sapiens, UniProt P06746); enzyme activity, inhibitor, radiometric): > 100000 nM
C#CCCNC(=O)[C@@H](NC(=O)N[C@H](C(=O)N[C@H]1/C=C/CCNC(=O)/C=C/[C@H](C(C)C)NC1=O)C(C)C)C(C)C  IC50 (Proteasome subunit beta type-10, trypsin-like site (Homo sapiens, UniProt P40306); enzyme activity, inhibitor, fluorescence): 16 nM
